Measurements gathered from unrelated publications.
A part holds a random share of what one study measured. Substitutions count along the parent as printed.

Block 1
Target: ABI1, truncated, D143A, DHFR fusion (Arabidopsis thaliana)
Method: DHFR PCA, deep sequencing
Medium: yeast
Setting: methotrexate growth selection, single substitutions
Added: (+)-ABA 4.8 µM
Reference: wild-type fitted maximum
Reading: higher = stronger binding
Starting sequence: PYL1, truncated, DHFR fusion (Arabidopsis thaliana); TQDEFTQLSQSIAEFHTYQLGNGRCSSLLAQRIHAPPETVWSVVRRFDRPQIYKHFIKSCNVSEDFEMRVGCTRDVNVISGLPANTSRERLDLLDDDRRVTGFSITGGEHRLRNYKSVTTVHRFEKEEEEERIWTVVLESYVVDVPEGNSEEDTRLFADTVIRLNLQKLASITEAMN; partner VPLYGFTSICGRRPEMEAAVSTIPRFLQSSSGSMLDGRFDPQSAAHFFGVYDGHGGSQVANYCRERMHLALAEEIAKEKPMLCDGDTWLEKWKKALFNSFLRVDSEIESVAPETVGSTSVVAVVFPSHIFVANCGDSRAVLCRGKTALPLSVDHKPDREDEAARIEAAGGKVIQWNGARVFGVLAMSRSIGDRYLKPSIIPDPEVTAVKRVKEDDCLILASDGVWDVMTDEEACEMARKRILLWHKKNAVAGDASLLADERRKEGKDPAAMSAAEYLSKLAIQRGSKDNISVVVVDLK
For `S26A`, “relative binding score” read 65.4%.
`V145W`: “relative binding score” -4.28%.
Under “relative binding score”, `L29S` is recorded as 12.5%.

Block 2
Target: RNA binding protein fox-1 homolog 2, RRM domain, GST-SBP tag (RBFOX2, Homo sapiens, UniProt O43251-10, residues 100-194)
Method: RNA Bind-n-Seq
Molecule type: RNA
Medium: in vitro
Concentration: 365 nM
Setting: natural RNA segment, single round, ends assumed
Reference: no-protein control
Reading: higher = stronger binding
Construct (chain): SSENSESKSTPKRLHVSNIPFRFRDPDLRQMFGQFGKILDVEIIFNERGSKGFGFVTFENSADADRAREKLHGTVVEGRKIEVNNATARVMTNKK
`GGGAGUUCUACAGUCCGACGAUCUGCCAAGGUAGAGAACUGUGAGUGACUGUUGGUGUGGUGAAGGGUGUUGACCAUGCAGGGAAGUGGCCAAUGUGCCCACUUCCCAUCUCUUCCUUGCGCAUUGUCAGCAUUGGAAUUCUCGGGUGCCAA` — result for “RBNS enrichment (R)”: 0.63.
Under “RBNS enrichment (R)”, `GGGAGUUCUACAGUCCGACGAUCUUCUGCCGGCAGAUAUGUUUCAAGACGCUGUAAACCUCUGAAGGAAUUUAUGCUUUCUCAAGAUGUUGAACAUGAGCGUCUCUUUGACCUCAUUCAGAAAAUGUUGGAGUUGGAAUUCUCGGGUGCCAA` is recorded as 0.372.
`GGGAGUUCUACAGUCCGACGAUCUGGGCCAGAGCCUCUCCUUGCCCUUGCUCCAUCCCGACGGUCACCGUUGGGUCCACGCCUCCACCGCCCCAUCUUGCCCCAAACGGAAAGCGCUGUAUCUGCAGUGGCAGUGGAAUUCUCGGGUGCCAA`: “RBNS enrichment (R)” 0.388.
For `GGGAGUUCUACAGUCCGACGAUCCCCCACGAAAUUUAAAGAUGGGGAAAAAAAGAUGGUAUAAAAAUGGCUCUGGUUCAAUAAGCAGUCACCCAAAGUAAAGACUCUAUCUUGAAAGGCUUUUGGUGAAAAUGUGGAAUUCUCGGGUGCCAA`, “RBNS enrichment (R)” read 0.384.
`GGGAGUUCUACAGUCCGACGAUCUGGAGACACUGUGUGUAUCUCUAGAUAAGAAGAUAUGCACCACGUUGAAAAUACUCAGUGUAGAUCUCUAUGUGUAUAGGUAUCUGUAUAUCUUUCCUUUUGUUUACAACUGGAAUUCUCGGGUGCCAA` — result for “RBNS enrichment (R)”: 0.301.
`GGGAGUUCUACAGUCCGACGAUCGUCUAUAAACUAGCUUUAGGAUAGUGCCAGACAAACAUAUGAUAUCAUGGUGUAAAAAACACACACAUACACAAAUAUUUGUAACAUAUUGUGACCAAAUGGGCCUCAAAUGGAAUUCUCGGGUGCCAA`: “RBNS enrichment (R)” 0.232.
Under “RBNS enrichment (R)”, `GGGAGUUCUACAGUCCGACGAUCGUCUGCAAUUUGGAUUUUCUCCAAGUACAUCAUGACACCUUCGUCCUCCUGAACUGGAGAGGGGAAGAAAUGAAAGGCAUCCCAUAUCAACCAUUUCCUCAGUCCCUGACUGGAAUUCUCGGGUGCCAA` is recorded as 0.196.

Block 3
Target: Histone acetyltransferase KAT6A, winged helix 1, GST fusion (KAT6A, Homo sapiens, UniProt Q92794, residues 1-85)
Method: protein binding microarray
Molecule type: double-stranded DNA, one strand shown
Medium: in vitro
Concentration: not given
Setting: 8-mer, flanks averaged, mean of 2 arrays, mostly near background
Reference: not given
Reading: higher = stronger binding
Residues (chain): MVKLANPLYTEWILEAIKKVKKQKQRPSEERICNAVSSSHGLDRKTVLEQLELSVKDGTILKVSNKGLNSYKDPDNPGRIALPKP
With `TATAACAA` the E-score was -0.147.
For `CCAACCTC`, the E-score was -0.0787.
For `ATCTACAC`, the E-score was -0.191.
For `GAATTCAC`, the E-score was -0.179.
With `GAATTCTA` the E-score was -0.104.
The E-score of `AACTTTAG` is reported as -0.0591.

Further values, each from its own experiment
`PhoQ, residues 284 288 289 292 302 303 QWQEDG` gave a fold induction of 20.6 (PhoP, residues 12 14 15 18 19 LHHSG (Escherichia coli, UniProt P23836); Sort-seq, measured: YFP reporter; E. coli; PhoQ-PhoP variant library, added: 10 µM Mg2+; reference: high Mg2+ state, higher = stronger signaling).
